Measured values pooled from the literature.
A part holds a random share of what one study measured. Substitutions count along the parent as printed.

Sample 1 — technique: RNA Bind-n-Seq; form: RNA; medium: in vitro; concentration: 200 nM; setting: whole 134-nt RNA, ends assumed; together with: 150 mM LiCl; relative to: input library; direction: higher = stronger binding; all molecules: 7-deaza-guanosine replaces G
Target: Fragile X messenger ribonucleoprotein 1, C-terminal low-complexity region (Fmr1, Mus musculus, UniProt P35922)
Shared flanks, not repeated: GGGAGUUCUACAGUCCGACGAUC … UGGAAUUCUCGGGUGUCAAGG
| Sequence | log2 enrichment |
| --- | --- |
| CCUCAAGUCCUGUGCUACACAUCGUAUGUACCGAAUCGGAAAGGAGGUUUGGAAAGUAUUAUGUUACGCCGUUCGGAUCUGCACUUCCAG | -1.3 |
| CAAGUCCUGUGCUACACAUCGUAUGUACCGAAUCGGGGCCGGGGCCGGGGCCGGGAAAGUAUUAUGUUACGCCGUUCGGAUCUGCACUUC | -0.25 |
| CAAGUCCUGUGCUACACAUCGUAUGUACCGAAUCGGAAAAGGAAAAGGGGAAAAGGAAAGUAUUAUGUUACGCCGUUCGGAUCUGCACUU | -1.09 |
| UGGCAGCGGCCAUGGACCGCUUCGUUUGGACCAGCGGCCUCCUGGAGAUCAACGAGACCCUGGUGAUCCAGCAGCGCGGGGUGCGAAUCU | -2.5 |
| UGUGCUACACAUCGUAUGUACCGAAUCGGGGUUUUUUUGGGUUUUUUUGGGGUUUUUUUGGGGAAAGUAUUAUGUUACGCCGUUCGGAUC | 2.1 |
| GUCCUGUGCUACACAUCGUAUGUACCGAAUCGGGGAAAGGGGAAAAAAAGGGGAGGGGAAAGUAUUAUGUUACGCCGUUCGGAUCUGCAC | 1.22 |
| AGUCCUGUGCUACACAUCGUAUGUACCGAAUCGGAAAAAGGGAAAAAGGGAAAAAGGAAAGUAUUAUGUUACGCCGUUCGGAUCUGCACU | -1.39 |
| GUCCUGUGCUACACAUCGUAUGUACCGAAUCGGUUUUUUUGGAAAAAGGUUUUUUUGGAAAGUAUUAUGUUACGCCGUUCGGAUCUGCAC | -3.12 |

Sample 2 — technique: DHFR PCA, deep sequencing; medium: yeast; together with: (+)-ABA 0.11 µM; relative to: wild-type fitted maximum; direction: higher = stronger binding
Target: ABI1, truncated, D143A, DHFR fusion (Arabidopsis thaliana)
Setting: methotrexate growth selection, single substitutions
Parent: PYL1, truncated, DHFR fusion (Arabidopsis thaliana); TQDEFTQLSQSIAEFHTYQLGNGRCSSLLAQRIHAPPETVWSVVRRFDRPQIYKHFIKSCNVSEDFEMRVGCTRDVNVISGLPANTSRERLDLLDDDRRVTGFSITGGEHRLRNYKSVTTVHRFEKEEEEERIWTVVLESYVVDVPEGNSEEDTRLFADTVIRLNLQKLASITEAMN; partner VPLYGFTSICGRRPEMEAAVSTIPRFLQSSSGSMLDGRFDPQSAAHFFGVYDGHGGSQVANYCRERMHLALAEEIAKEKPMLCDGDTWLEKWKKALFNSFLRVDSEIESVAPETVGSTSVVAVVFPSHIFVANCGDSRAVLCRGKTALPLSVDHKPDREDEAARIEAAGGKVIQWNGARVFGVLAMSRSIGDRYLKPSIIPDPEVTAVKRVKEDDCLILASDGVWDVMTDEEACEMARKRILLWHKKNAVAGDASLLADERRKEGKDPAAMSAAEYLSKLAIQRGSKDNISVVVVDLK
| Change | relative binding score |
| --- | --- |
| S117E | -2.92% |
| T173S | 25.9% |
| V137Q | -1.94% |
| A158E | -5.9% |
| I79N | 7.75% |
| E67S | 20.6% |
| R46E | -1.82% |
| G21N | 18.9% |
| R69Q | 35.9% |
| I52S | 17.4% |
| T6P | 56.5% |
| R113F | -1.16% |
| T6E | 52.7% |
| I133T | 41.7% |
| E127W | 22.3% |
| E152Y | 9.84% |
| I79H | 25.4% |
| S140L | 2.64% |
| L164D | -3.05% |
| A35E | 4.52% |
| H122L | -5.54% |
| E64C | 15.2% |
| R24A | 9.67% |
| E147I | 8.74% |
| R69G | 12.1% |

Sample 3 — target: CCNE1, cyclin fold, Cln2 fusion (human); technique: yeast growth competition, sequencing; medium: yeast; setting: weak parent motif; relative to: not given; direction: higher = stronger binding
Parent: SAMHD1 docking peptide (human); ASKSRVQLFKDDP
| Change | normalised enrichment score |
| --- | --- |
| AHKSRVQLFKDDP [S2H] | 0.634 |
| ASKVRVQLFKDDP [S4V] | 3.1 |
| ASKSFVQLFKDDP [R5F] | 0.113 |
| ASKQRVQLFKDDP [S4Q] | 0.178 |
| ASKSRVQLFNDDP [K10N] | 0.55 |
| ASISRVQLFKDDP [K3I] | 0.137 |
| ASKCRVQLFKDDP [S4C] | 2.73 |
| ASVSRVQLFKDDP [K3V] | 0.331 |
| ASKSRVQLFKSDP [D11S] | 0.488 |
| ASKSSVQLFKDDP [R5S] | -0.0604 |
| ASKSRNQLFKDDP [V6N] | -0.114 |
| ASKSRVQLFKVDP [D11V] | 0.144 |
| ASKRRVQLFKDDP [S4R] | 0.232 |
| ASKWRVQLFKDDP [S4W] | 0.421 |
| ASKSRVQLFADDP [K10A] | 0.192 |
| ASKSRVQDFKDDP [L8D] | 0.109 |
| ASKSRDQLFKDDP [V6D] | -0.209 |
| ASKSRVQMFKDDP [L8M] | -0.245 |
| ASKSRVQEFKDDP [L8E] | 0.267 |
| ASKSLVQLFKDDP [R5L] | 0.027 |
| ASHSRVQLFKDDP [K3H] | 0.334 |

Sample 4 — target: UBE2E2 UBC core domain (UniProt Q96LR5); technique: yeast two-hybrid; medium: yeast; setting: mostly zero background; relative to: not given; direction: higher = stronger interaction
Chain of UniProt Q96LR5 (whole entry, looked up): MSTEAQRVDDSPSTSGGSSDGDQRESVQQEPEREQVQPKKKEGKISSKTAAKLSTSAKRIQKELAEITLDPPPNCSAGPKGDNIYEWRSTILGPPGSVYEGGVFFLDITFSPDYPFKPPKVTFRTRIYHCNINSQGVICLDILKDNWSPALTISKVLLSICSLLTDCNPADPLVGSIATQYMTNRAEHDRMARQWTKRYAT
B1: ZMYND11 RING domain (UniProt Q15326); chain DEIDWETENHDWYCFECHLPGEVLICDLCFRVYHSKCLSDEFRLRDSSSPWQCPVCRSIKKKNTNKQEM
B2: RNF186 RING domain (UniProt Q9NXI6); chain HSGSTECDLECLVCREPYSCPRLPKLLACQHAFCAICLKLLLCVQDNTWSITCPLCRKVTAVPGGLI
B3: ZNRF4 RING domain (UniProt Q8WWF5); chain VRTFTWHNDLCAICLDEYEEGDQLKILPCSHTYHCKCIDPWFSQAPRRSCPVCKQSVAATEDSF
B4: MID2 RING domain (UniProt Q9UJV3); chain KMETLESELTCPICLELFEDPLLLPCAHSLCFSCAHRILVSSCSSGESIEPITAFQCPTCRYVISLNHRGL
B5: TRIM11 RING domain (UniProt Q96F44); chain LSTNLQEEATCAICLDYFTDPVMTDCGHNFCRECIRRCWGQPEGPYACPECRELSPQRNLRP
B6: NFX1 RING domain (UniProt Q12986); chain IEQLTTEKYECMVCCELVRVTAPVWSCQSCYHVFHLNCIKKWARSPASQADGQSGWRCPACQNVSAHVPNTY
B7: VPS8 RING domain (UniProt Q8N3P4); chain TRGLNPKQDYCSICLQQYKRRQEMADEIIVFSCGHLYHSFCLQNKECTVEFEGQTRWTCYKCSSSNKVGKLSE
B8: RUFY1 RING domain (UniProt Q96T51); chain QALKGHAWLKDDEATHCRQCEKEFSISRRKHHCRNCGHIFCNTCSSNELALPSYPKPVRVCDSCHTLLLQRCSSTAS
B9: RING1 RING domain (UniProt Q06587); chain SPRSLHSELMCPICLDMLKNTMTTKECLHRFCSDCIVTALRSGNKECPTCRKKLVSKRSLR
| Sequence | lacZ reporter activity |
| --- | --- |
| B1 (ZMYND11 RING domain) | 0 |
| B2 (RNF186 RING domain) | 0 |
| LEALSSDFLACKICLEQLRAPKTLPCLHTYCQDCLAQLADGGRVRCPECRETVPVPPEGV (TRIM56 RING domain (UniProt Q9BRZ2)) | 0 |
| B3 (ZNRF4 RING domain) | 0 |
| B4 (MID2 RING domain) | 0 |
| B5 (TRIM11 RING domain) | 0 |
| B6 (NFX1 RING domain) | 0 |
| B7 (VPS8 RING domain) | 0 |
| B8 (RUFY1 RING domain) | 0 |
| B9 (RING1 RING domain) | 0 |

For quick reference, copied from above (sample 3):
| Change | normalised enrichment score |
| --- | --- |
| ASKSRVQLFADDP [K10A] | 0.192 |
| ASKSRVQDFKDDP [L8D] | 0.109 |
| ASKSRDQLFKDDP [V6D] | -0.209 |
| ASKSRVQMFKDDP [L8M] | -0.245 |
| ASKSRVQEFKDDP [L8E] | 0.267 |
| ASKSLVQLFKDDP [R5L] | 0.027 |
| ASHSRVQLFKDDP [K3H] | 0.334 |
